Assay results collected from several papers.
A part holds a random share of what one study measured. Substitutions count along the parent as printed.

Set 1 — method: protein binding microarray; molecule type: double-stranded DNA, one strand shown; medium: in vitro; tested at: not given; reference: not given; reading: higher = stronger binding; quantity: E-score
Target: Histone acetyltransferase KAT6A, both winged helices, GST fusion (KAT6A, Homo sapiens, UniProt Q92794, residues 1-181)
Setting: 8-mer, flanks averaged, mean of 2 arrays, mostly near background
Residues (chain): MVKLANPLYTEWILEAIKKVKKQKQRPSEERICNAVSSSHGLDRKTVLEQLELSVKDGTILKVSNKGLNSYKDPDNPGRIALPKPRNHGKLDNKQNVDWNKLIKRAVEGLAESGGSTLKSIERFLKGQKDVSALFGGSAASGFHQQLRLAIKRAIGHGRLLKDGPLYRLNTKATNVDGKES
CGCACTGC: 0.222
GATAGAGC: 0.0613
ACTTGCTA: -0.173
CTTAACAC: 0.00581
CCCCCCTA: -0.219
CATGCGTA: 0.142
GCGGCGTA: 0.306
TTCCGAAA: 0.0459
CAACCTTA: -0.095
CTATTAAC: -0.0447
TACATTGA: -0.0979
TCATCGGA: 0.0422
CCAAATTC: -0.214
CCGGTCGC: 0.265
AATCGACC: 0.0331
AAGTCGTA: -0.14
TAACGCTA: -0.00989
GCTTGACA: 0.0324
ATCATTAA: 0.0374
TAGTAACA: -0.0937
AGGACGGG: 0.116
AATTCACA: -0.00247
CCTCCGCA: -0.0484

Set 2 — method: protein-binding microarray; molecule type: double-stranded DNA, one strand shown; medium: in vitro; tested at: 2200 nM top; setting: 60-bp whole probe; added: salmon DNA 0.4 mg/ml; reference: random background probes; reading: higher = stronger binding; quantity: fitted relative affinity; all sequences stand within: GCCTAGCAC … GTCTTGATTCGCTTGACGCTGCTG
Target: Interferon regulatory factor 7, full length, phosphomimetic (IRF7, Homo sapiens, UniProt Q92985, residues 1-503, S471D/S472D/S475D/S476D/S477D/S483D/S484D/S487D)
Target sequence (chain): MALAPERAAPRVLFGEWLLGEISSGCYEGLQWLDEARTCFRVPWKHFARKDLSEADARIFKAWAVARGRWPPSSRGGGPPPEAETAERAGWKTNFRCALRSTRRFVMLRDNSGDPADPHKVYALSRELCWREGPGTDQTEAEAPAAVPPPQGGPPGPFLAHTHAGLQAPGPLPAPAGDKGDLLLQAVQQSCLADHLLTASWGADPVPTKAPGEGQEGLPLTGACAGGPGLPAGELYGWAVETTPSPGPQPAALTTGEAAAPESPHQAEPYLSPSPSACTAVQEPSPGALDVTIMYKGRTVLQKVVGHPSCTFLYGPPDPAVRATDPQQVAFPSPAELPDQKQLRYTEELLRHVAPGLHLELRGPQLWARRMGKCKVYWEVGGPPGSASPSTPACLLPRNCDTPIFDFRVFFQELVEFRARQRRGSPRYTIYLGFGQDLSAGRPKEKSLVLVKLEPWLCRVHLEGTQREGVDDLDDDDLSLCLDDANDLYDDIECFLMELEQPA
TTAGGACTGGGTATCGATTAGTGCTAG: -0.232 z-score
TGAGGTATCCTTTTCCTTTAGTGCTAG: 1.33 z-score
TCAGCTTCCTCTTTACTACTGTGCTAG: 2.61 z-score
TCACTTTTCCCCCTAGTACTGTGCTAG: 3.07 z-score
TTAGGTTTCGGTTTCGATTAGTGCTAG: 15.3 z-score
GACGATATCATACTGGAGACGTGCTAG: 0.0189 z-score
GACGGACTGGCCTTTCGGGACGTGCTA: -0.218 z-score
TCATTGATGGCTCTCTGACTGTGCTAG: 0.303 z-score
TCATTTTTCTCAACCGTACTGTGCTAG: 1.89 z-score
GACGGTATCCTTTTACTGACGTGCTAG: 1.16 z-score
TTAGGTCTGCTACTGCTTTAGTGCTAG: 0.149 z-score
GACGGTCTCCTTAACCTGACGTGCTAG: 0.722 z-score
GACGGTTTCGGTTTCGGGAAGTGCTAG: 13.8 z-score
ATAGGTTTCGGACTGGGTTAGTGCTAG: 3.66 z-score
TCATCTTTTCTTTTCTTACTGTGCTAG: 4 z-score
GACGGTACCGGTTTCGGGACGTGCTAG: 2.9 z-score
GAGGAACTGAGACTGGAGACGTGCTAG: -0.777 z-score
GACGGACTGGACTATCAGGACGTGCTA: -0.947 z-score
TTAGGACTGGACACTAGGTTAGTGCTA: -0.874 z-score
TCGGTGATCAGTCTGATGGTGTGCTAG: 0.854 z-score

Set 3 — method: universal PBM; molecule type: double-stranded DNA, one strand shown; medium: in vitro; tested at: not given; reading: higher = stronger binding; quantity: E-score
Target: Sal-like protein 4, full length isoform B (SALL4, Homo sapiens, UniProt Q9UJQ4-2, residues 1-616)
Setting: 8-mer, flanks averaged, mean of replicates
Residues (chain): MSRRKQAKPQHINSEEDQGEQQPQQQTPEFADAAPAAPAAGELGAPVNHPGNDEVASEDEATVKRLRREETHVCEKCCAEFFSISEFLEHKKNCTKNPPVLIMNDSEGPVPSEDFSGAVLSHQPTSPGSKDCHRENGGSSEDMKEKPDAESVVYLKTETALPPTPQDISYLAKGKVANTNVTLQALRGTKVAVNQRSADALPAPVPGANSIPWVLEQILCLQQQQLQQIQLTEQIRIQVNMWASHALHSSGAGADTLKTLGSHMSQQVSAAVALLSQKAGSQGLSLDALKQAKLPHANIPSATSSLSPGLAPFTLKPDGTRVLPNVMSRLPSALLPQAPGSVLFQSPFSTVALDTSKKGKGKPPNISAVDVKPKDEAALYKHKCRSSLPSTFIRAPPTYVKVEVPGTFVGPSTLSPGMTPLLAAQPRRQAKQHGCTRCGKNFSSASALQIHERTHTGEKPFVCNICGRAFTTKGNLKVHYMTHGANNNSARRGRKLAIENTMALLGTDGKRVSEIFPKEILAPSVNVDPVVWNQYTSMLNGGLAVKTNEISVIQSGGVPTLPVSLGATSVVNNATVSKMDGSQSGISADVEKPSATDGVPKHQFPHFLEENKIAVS
ATCTGGGA: -0.0521
CCACCACC: -0.173
ATCTTAAA: 0.12
AGAAAACT: 0.0609
ACTTCCGA: -0.102
AGGGACGA: -0.155
TCTCATCA: 0.113
GTTCGCCA: -0.089
AGCTGCCT: -0.317
ACCAATAC: 0.151
GTCCTCAA: -0.00929
ATGCTCGC: -0.195
GCACGAGC: -0.29
ACCGATAG: -0.0415
GTCGGCAA: -0.308
ACGAATCT: 0.0719
GAGGGCCC: -0.34
AATGTAAT: 0.315
CGTGAATA: 0.177
AGGGCAGC: -0.239
ACACGCCA: -0.202
GGTATCGA: 0.00796

Set 4 — method: RNA Bind-n-Seq; molecule type: RNA; medium: in vitro; tested at: 365 nM; reference: no-protein control; reading: higher = stronger binding; quantity: RBNS enrichment (R)
Target: RNA binding protein fox-1 homolog 2, RRM domain, GST-SBP tag (RBFOX2, Homo sapiens, UniProt O43251-10, residues 100-194)
Setting: natural RNA segment, single round, ends assumed
All sequences stand within: GGGAGUUCUACAGUCCGACGAUC … UGGAAUUCUCGGGUGCCAA
Target sequence (chain): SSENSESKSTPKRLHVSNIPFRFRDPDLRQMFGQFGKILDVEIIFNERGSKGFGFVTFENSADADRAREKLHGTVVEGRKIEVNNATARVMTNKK
UUGAGGCUCCCCUGGGAACUAGAGCCAGGAACAGCCAGUGGCACUGACAAGGGGACGGAGUCCAAGGCGUUAUUGGGCCACCUGACAGCUGGACAGAAAAGGGGCAGACA: 0.345
UAGGAGGUAUAAUAUAUAUUUCUUGAGUAAUAAUGUGGUUACGGAAUUCCAAUGUUAUAGUGAAGUGUAAUGAAAAACAUCUCUAGGAAUGUGCUUUAACCACUGCUGCA: 1.63
CCUCCCUUCUCUUGUUUCUUUUAUUUAUAAGUUACCAUUCCUAGUUUCUUUGUACUUGAAAUUUUAAGAAACCAGAAACAAGUAAAUCUGGUUGUAUCUAGAUCUUUGCU: 0.638
AAAUCUUCAAAUAUUGUCUACUGUGUAAGGCAGAAAAAUUUCUUAUCAUGCAAAAACCAUUUUGUUUCCAGGGUAACAAGUAACUAAGUGCAUGCACAACUUGUUUUCCC: 5.16
GAUACUUUGCAGCUCAUCCAAAGAGACAUAACUAAACCCUAAACUCUUUUUUUGUUGUUGUUGUUGUUGUUUUUUUUUUUUAUGAUUAAAAAGUAAAAAUUGUAGUUUAA: 0.531
UGACUCUGCAGUGCCAGCUUGGACAGAUUGAGGUCUCUGUGGCUUUGGUGACCCUGCUUAAGCAUUCCCACCGUGUCCCAGCUCUGCUCUAGGACUGCCUCCCACUGCGG: 0.496
CUGAGGACAGUGUGAAUAAUUGUAGCCUGACCUUUUGCAUUCUCCAGCUCAGCUGCUAGGAAGACUUACUUGUCAUGAUUUAUAUAAUAAAAUUAAGGACACUGAAAAUU: 0.573
CUCAUCUCCUCUGCCUGUGUCUGCGACCCCCAUCCAUGUGCCAAAGUGUCCCUUGGGUCACACAGCUAAAGCCGAGGUGACCAGUUGUACCCCGAGUGCCAGGCUUGUGA: 1.13
AAUGCAUAUUCAUGCCAAAACAAGUGGUCCCCAAGCCUGUUUAAAAGGUUAACUUGGCCCGAAAAUAUUGCAGCAGCUUCAUGCAAGAAUUGCCACAGGACACUAUGGCC: 0.35
CUUCUCACACAGCAAGUCCGAGCUGUGAACUGUAGUUCGUGAGAGAAAUCAGCCUGAGGCUGUCUUCACAGGCAGACAUCUAUCCUGCUUCCUCUUCCGGGGCUUCUGGG: 0.212
CUCCAUGAAUUUCUGCCUAUGAGGCAUUUGCCUCCAAGUAGCCUAUCCUUCAGAAUUACUUGUAGGAUAUUCCUCUCUUCAUGUUCUAAUAAACUUCUACAUCAUCAUCA: 0.524
GACUGCUGGAACCCAAAACUGACAAGGUUUAUUUUUUCCAGAGCCGGUGGCUGGUCUUCCAUUUACAGUGUCACUAUUCCUUGAUGGAGCAGUUAUGUGCCCGCUCUGGU: 0.792

Set 5 — target: FOSB, bZIP domain (human); method: DHFR protein complementation; medium: yeast; reference: wild-type JUN-FOS pair; reading: higher = stronger binding; quantity: binding fitness
Setting: single substitutions, most at no-binding floor
Parent: JUN, bZIP domain (human); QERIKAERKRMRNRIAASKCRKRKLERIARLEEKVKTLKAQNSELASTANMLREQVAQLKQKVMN; partner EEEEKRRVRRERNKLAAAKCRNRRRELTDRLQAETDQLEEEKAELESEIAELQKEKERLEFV
K36H: -0.111 natural log
R30M: -0.0452 natural log
A57V: -0.0564 natural log
T37E: 0.0272 natural log
I28Y: -0.222 natural log
Q41N: -0.322 natural log
N42R: -0.227 natural log
Q41L: -0.219 natural log
E32D: -0.177 natural log
T48V: -0.108 natural log
E44V: -0.0927 natural log
E44I: -0.116 natural log
K39H: -0.305 natural log
E44Y: -0.371 natural log
N42W: -1.02 natural log
V35E: -1.07 natural log
S47V: 0.0736 natural log

Set 6 — method: RNAcompete; molecule type: RNA; medium: in vitro; tested at: 20 nM; setting: 7-mer, probes averaged, single round; reference: mean of 7-mers; reading: higher = stronger binding; quantity: 7-mer Z-score
Target: PABPC1L2, full length, GST fusion (mouse, UniProt A0ABA7IW68)
Target sequence (chain): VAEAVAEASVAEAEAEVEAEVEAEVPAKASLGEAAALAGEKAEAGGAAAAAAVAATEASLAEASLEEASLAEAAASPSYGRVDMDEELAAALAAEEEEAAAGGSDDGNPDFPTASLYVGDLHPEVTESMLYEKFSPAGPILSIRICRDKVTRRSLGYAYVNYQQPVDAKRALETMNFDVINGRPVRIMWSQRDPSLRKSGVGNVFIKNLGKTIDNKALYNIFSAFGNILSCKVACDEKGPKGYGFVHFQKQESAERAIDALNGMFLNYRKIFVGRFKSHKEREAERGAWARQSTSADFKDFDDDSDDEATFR
UGACCAU: -0.0699
UAGUUGU: -0.3
UAAAGUA: 0.939
GUAAUUG: -0.0627
UCAGCGG: 0.0116
AGACCCG: -0.311
AGGGAGA: 0.211
CCCUCCG: -0.416
AUGUACU: -0.0627
CGAGGAU: 0.0225
UGAAGUC: -0.199
GCCGGCC: -0.434
UCCUUCA: -0.248
ACCGCAA: -0.05
CGAGGAC: 0.12
CUCACAG: -0.175
AGGAACA: 0.285
GAACUCC: -0.242
CGGGCGG: 0.389

Some of these lines once more (set 1):
GATAGAGC: 0.0613
ACTTGCTA: -0.173
CTTAACAC: 0.00581
CCCCCCTA: -0.219
CATGCGTA: 0.142
GCGGCGTA: 0.306
TTCCGAAA: 0.0459
CAACCTTA: -0.095
CTATTAAC: -0.0447
TACATTGA: -0.0979
TCATCGGA: 0.0422
